Measurements gathered from unrelated publications.
Protocols differ between the studies behind these lines. “And” joins repeats or separate records; there may be more than shown. ± gives the spread as reported. ≈ marks a conversion by molar mass, not a printed value.

`O=C(N[C@@H](CSCc1ccc([N+](=O)[O-])cc1)C(=O)NO)c1ccccc1` — result for “relative organ weight”: “no effect” (ICR mice, male, heart, lungs, kidney, liver; oral, 200 mg/kg, 28 days, subacute toxicity).
Under “blood pressure increased”, `CCO` is recorded as 27.8% (human; concentration not given, treatment-emergent adverse event).
`COc1ncc(-c2nc3c(n2C(C)C)[C@H](c2ccc(Cl)cc2)N(c2cc(Cl)cn(C)c2=O)C3=O)c(OC)n1` gave a median Tmax of 2 h (human patients, plasma; oral, 12.5 mg, high-dose arm, cycle 2 day 1).
With `COc1ccc2c(c1)CN(C(=O)CCN1CCC(Cc3ccccc3)CC1)CC[S@@+]2[O-]` the PQ interval was 85 ± 8 ms (telemetry; conscious male beagle dogs; intravenous, 8 mg/kg, 1 h).
For `CCO[C@H]1CCN(Cc2c(OC)cc(C)c3[nH]ccc23)[C@H](c2ccc(C(=O)O)cc2)C1`, “incidence free thyroxine increase” read 14.3% (PNH patients, active haemolysis; oral, 100 mg, treatment).
For `CC(C)n1c(Nc2cccnc2)nc2cnc(Nc3ccc(N4CCN(C)CC4)cc3)nc21`, “subjects with adverse event” read 0% (item: nausea; healthy male subjects; oral, 100 mg, study, together with: itraconazole).
For `COc1cc(Cl)c(C(=O)N[C@@H](CN[C@H]2CC[C@@H](N)CC2)Cc2ccc(C#N)cc2)cc1-c1ccc(CN[C@H](C)c2ccc(C)cc2)o1`, the blood clearance was 58.3 mL/min/kg (rat liver microsomes; 1 µM, pH 7.4).
`CC(C)Oc1c(NC(=O)c2ccc(NC(=O)[C@H](CC(N)=O)NC(=O)c3ccc(/N=N/c4ccccc4)cc3)cc2)ccc(C(=O)N/N=C/c2ccc(C(=O)O)s2)c1O` gave a thermal half-life of 3 h (absorbance; DMSO; 45 °C, PSS to ground state relaxation).
The diarrhoea incidence of `CNCc1ccc(-c2[nH]c3cc(F)cc4c3c2CCNC4=O)cc1` is reported as 0% (human patients; oral, 600 mg twice daily, grade 4).
`OCc1nc2ccc(NCc3ccc(C(F)(F)F)cc3)cc2[nH]1`: “elimination rate constant” 7.33e-05 s⁻¹ (human liver S9; 1 µM, pH 7.4).
The terminal half-life of `C=CC(=O)NC1CCN(c2ncc3ncnc(Nc4ccc(Oc5ccc6c(c5)ncn6C)c(C)c4)c3n2)CC1` is reported as 52.9 h (healthy male volunteers, plasma; oral, 60 mg, [14C]-labelled oral solution).
For `C[C@@H](Oc1cc(-c2cnn(C3CCNCC3)c2)cnc1N)c1c(Cl)ccc(F)c1Cl`, “average steady-state concentration” read 719 nmol/L (human, plasma; recommended dose, total).
For `COCC(=O)N1CCC[C@H](C(=O)NCc2nc(-c3ccc(C#N)cc3)cs2)C1`, the unbound AUC was 1.3 µM·h (Sprague-Dawley rat, male, plasma; oral, 3 mg/kg).
For `Cc1ccc([C@@H]2O[C@H](CO)[C@@H](O)[C@H](O)[C@H]2O)cc1Cc1ccc(-c2ccc(F)cc2)s1`, “urinary chloride excretion change” read 9.08 mEq (Japanese type 2 diabetes patients; 400 mg, day 15, 24 h urine collection; baseline: baseline).
With `COc1cccc(-c2n[nH]c(SCc3ccccn3)n2)c1OC` the liver weight was 16.6 g (Sprague-Dawley rats, male; diet, 100 mg/kg/day, 90-day subchronic study).
The aqueous solubility of `O=[N+]([O-])c1cn2c(n1)OC[C@@H](OCc1ccc(N3CCSCC3)c(F)c1)C2` is reported as 4.2 µg/mL (≈ 10.6 µM) (aqueous buffer; pH 7.4).
`Cc1cccc(CNC(=O)c2cn(CCNC(=O)c3ccccc3S)c3cc4c(cc3c2=O)OC(F)(F)O4)n1` has a half-life of 0.84 ± 0.41 h (Sprague-Dawley rat, male, plasma; intravenous, 5 mg/kg of parent drug).
`O=C(O)CCC(=O)O.[2H]C([2H])([2H])Oc1cc(C)c2[nH]ccc2c1CN1CC[C@@H](C2CC2)C[C@H]1c1ccc(C(=O)O)cc1` — result for “subjects with elevated triglycerides TEAE”: 25% (multiple ascending dose; healthy Chinese subjects; 125 mg twice daily).
Under “patients with adverse event”, `COc1cc(Nc2ncc3c(n2)-c2ccc(Cl)cc2C(c2c(F)cccc2OC)=NC3)ccc1C(=O)O` is recorded as 8% (item: Alopecia, grade 2; cancer patients, phase 1/2; oral, dose not given, together with: pembrolizumab).
`C[C@H](CCC(=O)O)[C@H]1CC[C@H]2[C@@H]3[C@H](O)C[C@@H]4C[C@H](O)CC[C@]4(C)[C@H]3C[C@H](O)[C@]12C` — result for “relative peak deviation”: 149 ± 45% (human, plasma; endogenous baseline diurnal; baseline: daily mean concentration).
`CCc1cc(C(=O)NC)c2nccc(N3CCc4c(cc(Cn5ccnc5)cc4-c4cn(C)nc4C(F)(F)F)C3=O)c2c1` gave a spleen weight of 0.596 ± 0.078 g (Sprague Dawley rat; oral, 100 mg/kg once daily, 7 days).
For `CCOc1c([C@H](C)n2nc(C)c3c(N)ncnc32)cc(Cl)c(F)c1[C@@H]1CNC(=O)C1`, “AUC(0-last) geometric mean” read 5.58 µM·h (patients, monotherapy; oral, 20 mg once daily, cycle 1 day 1).
Under “AUC(0-inf) share of total”, `CCCCCCCCCCCCCCCC(=O)N[C@@H](CCC(=O)NCCCC[C@@H]1NC(=O)[C@H]([C@@H](C)CC)NC(=O)[C@@H](NC(=O)[C@@H]2CCCN2C(=O)[C@H](Cc2ccccc2)NC(=O)[C@H](Cc2c[nH]cn2)NC(=O)[C@@H](NC(=O)[C@H](CC(=O)O)NC(=O)CC(C)C)[C@@H](C)O)CSSC[C@@H](C(=O)N[C@@H](CCCCN)C(N)=O)NC(=O)CNC(=O)[C@H](CCCCN)NC(=O)[C@H](CO)NC(=O)[C@H](CCCNC(=N)N)NC(=O)[C@@H]2CCCN2C(=O)[C@H](CCC(=O)O)NC(=O)[C@H](Cc2ccccc2)NC1=O)C(=O)O` is recorded as 65.5 ± 3.96% (healthy volunteers, plasma; subcutaneous, 10 mg; baseline: parent plus metabolites).
For `Cc1nc2cccc(OCC(C)(C)C(=O)NC(C)C)c2c(N)c1C(=O)O`, “micronucleated NCE per 2000 PCE” read 1 (male Swiss albino CD-1 mouse, bone marrow; oral, 500 mg/kg, 48 h).
`O=C(c1cccnc1-c1ccncc1)N1CCC(O)(Cc2ccccc2)CC1` — result for “terminal elimination rate constant”: 6.39e-05 s⁻¹ (healthy Japanese adults, plasma; oral, 100 mg twice daily, day 7).
`C[C@H](CCC(=O)NCC(=O)O)[C@H]1CC[C@H]2[C@@H]3CC[C@@H]4C[C@H](OS(=O)(=O)O)CC[C@]4(C)[C@H]3C[C@H](O)[C@]12C`: “relative peak deviation” 82.7 ± 10.9% (human, plasma; endogenous baseline diurnal; baseline: daily mean concentration).
Under “participants with TRAE hot flush”, `O=C1CC[C@H](N2Cc3cc(N4CCN(CC5CCN(c6ccc([C@@H]7c8ccc(O)cc8CC[C@@H]7c7ccccc7)cc6)CC5)CC4)ccc3C2=O)C(=O)N1` is recorded as 0% (human; oral, 200 mg, together with: dabigatran etexilate 75 mg).
`Cc1cc(OCC(=O)OCCN)cc(C)c1Cc1ccc(O)c(C(C)C)c1.Cl` — result for sobetirome level: “decreased” (LC-MS/MS, item: liberated sobetirome; mouse, serum; intraperitoneal, 1.5 µmol/kg, 30 min; baseline: direct sobetirome injection).
`COc1cccc(OC)c1-c1cc(C(=O)NC2(C(=O)O)C3CC4CC(C3)CC2C4)nn1-c1ccc(C(=O)N(C)CCCN(C)CCCN(C)C(=O)CN2CCN(CC(=O)[O-])CCN(CC(=O)[O-])CCN(CC(=O)[O-])CC2)cc1C(C)C.[177Lu+3]` (stereo not drawn) gave a tumour-to-spleen ratio of 74.5 (mouse HT-29 xenograft; 24 h, biodistribution; baseline: tumour over spleen).
Under “change from baseline”, `CCCCOC(=O)N1CCN(C(=O)[C@H](CP(=O)(O)O)NC(=O)c2cc(N3CC[C@H](OC)C3)nc(-c3ccccc3)n2)CC1` is recorded as -1.1 ± 7.2 g/L (item: haemoglobin; human, blood; 8 mg, 24 h post-dose).
The measured concentration of `CC(C)[C@H](C(=O)Nc1ccc(C(=O)NO)cc1)c1ccccc1` is reported as 10.7 ng/mL (whole blood; 10.0 ng/mL, 1 h, 4 °C, stability on ice).
The body weight of `O=C(O)CSc1nnc(Br)n1-c1ccc(C2CC2)c2ccccc12` is reported as 32.2 g and 26.8 g and 34.8 g and 26.6 g and 31.2 g (KM mouse, chronic hyperuricaemia model; dose not given, day 11).
For `N#C[C@@]1(c2ccc3c(N)ncnn23)O[C@H](CO)[C@@H](O)[C@H]1O`, the unbound fraction was 0.846 (human plasma; 1 to 100 µM, mean over concentrations).
Under “systolic blood pressure change”, `CCN1/C(=C/C(C)=O)Sc2ccc(F)cc21` is recorded as 98.9 ± 4.9% (cynomolgus monkey; oral, 30 mg/kg, 4 h post-dose; baseline: pre-dose).
`Nc1nc2c(nc([N+](=O)[O-])n2[C@@H]2O[C@H](CO)[C@@H](O)[C@H]2O)c(=O)[nH]1` — result for “nucleoside remaining fraction”: 0.235 (depurination, RP-HPLC; citrate-phosphate buffer 0.5 mM; 2700 min, pH 5, 37 °C).
`CC(C)(C(=O)N1CCOc2c(C#N)cncc2C1)C(F)F`: “subjects with adverse event” 0% (item: conjunctival hyperaemia; human; oral, 20 mg once daily, 14 days, multiple ascending dose).
With `CN(C(=O)n1cnc(-c2ccc[n+]([O-])c2)c1)[C@H]1CC[C@H](O)CC1` the concentration was 10.3 ± 0.6 ng/g (Wistar rat, pons; oral, 10 mg/kg/day of BIA 10-2474, 4 h, repeated 5 days).
`Cc1ccc(Sc2ccccc2N2CCNCC2)c(C)c1` has an eczema incidence of 0% (healthy adult men; oral, 2.5 mg single dose, treatment-emergent adverse events).
With `CCCCCCOC(=O)N=C(N)c1ccc(N(Cc2nc3cc(C(=O)N(CCC(=O)OCC)c4ccccn4)ccc3n2C)N=O)cc1` the precipitation concentration was 100 to 1000 µM (cell culture medium).

Repeated from above:
Under “participants with TRAE hot flush”, `O=C1CC[C@H](N2Cc3cc(N4CCN(CC5CCN(c6ccc([C@@H]7c8ccc(O)cc8CC[C@@H]7c7ccccc7)cc6)CC5)CC4)ccc3C2=O)C(=O)N1` is recorded as 0% (human; oral, 200 mg, together with: dabigatran etexilate 75 mg).
`COc1ncc(-c2nc3c(n2C(C)C)[C@H](c2ccc(Cl)cc2)N(c2cc(Cl)cn(C)c2=O)C3=O)c(OC)n1` gave a median Tmax of 2 h (human patients, plasma; oral, 12.5 mg, high-dose arm, cycle 2 day 1).
Under “blood pressure increased”, `CCO` is recorded as 27.8% (human; concentration not given, treatment-emergent adverse event).
The measured concentration of `CC(C)[C@H](C(=O)Nc1ccc(C(=O)NO)cc1)c1ccccc1` is reported as 10.7 ng/mL (whole blood; 10.0 ng/mL, 1 h, 4 °C, stability on ice).
The terminal half-life of `C=CC(=O)NC1CCN(c2ncc3ncnc(Nc4ccc(Oc5ccc6c(c5)ncn6C)c(C)c4)c3n2)CC1` is reported as 52.9 h (healthy male volunteers, plasma; oral, 60 mg, [14C]-labelled oral solution).
With `CCCCCCOC(=O)N=C(N)c1ccc(N(Cc2nc3cc(C(=O)N(CCC(=O)OCC)c4ccccn4)ccc3n2C)N=O)cc1` the precipitation concentration was 100 to 1000 µM (cell culture medium).
